Published values pooled from the literature.
Lines come from different studies, so protocols differ. Several values in a cell are separate wells, animals, samples, runs or records. ± gives the spread as reported. In brackets after ≈: the same amount, converted by molar mass.

SMILES	tested on	test	system	setting	scale	measurement	value
CC[C@H](C)[C@H](NC(=O)[C@H](C)NC(=O)[C@H](CCCCN)NC(=O)[C@H](CC(C)C)NC(=O)[C@H](C)NC(=O)[C@@H](NC(=O)[C@H](Cc1c[nH]cn1)NC(=O)[C@H](CC(C)C)NC(=O)[C@@H](NC(=O)[C@@H](NC(=O)[C@H](CCCCN)NC(=O)[C@H](C)NC(=O)[C@H](C)NC(=O)[C@H](CO)NC(=O)[C@H](CCCCN)NC(=O)[C@H](Cc1ccccc1)NC(=O)[C@@H](NC(=O)[C@H](CCCCN)NC(=O)[C@H](CC(C)C)NC(=O)[C@H](Cc1ccccc1)NC(=O)[C@H](CO)NC(=O)[C@H](CCCCN)NC(=O)[C@H](Cc1c[nH]c2ccccc12)NC(=O)[C@H](CCCCN)NC(C)=O)[C@@H](C)O)[C@@H](C)O)C(C)C)[C@@H](C)O)C(=O)N[C@@H](CO)C(=O)N[C@@H](CO)C(N)=O	Enterococcus faecalis		ATCC 29212			MIC geometric mean	32 µg/mL (≈ 10.9 µM)
COc1cccc(C(=O)NN(C(=O)c2cc(C)cc(C)c2)C(C)(C)C)c1C	Anopheles gambiae s.l.		resistant	tarsal contact, dose not given, 24 h post blood meal, with: RME	reference: control	lifespan	decreased
C[C@H]1O[C@@H](O[C@H]2CC[C@@]3(C)[C@@H](CC[C@]4(C)[C@@H]3C=C[C@]35OC[C@@]6(CCC(C)(C)C[C@H]63)[C@@H](O)C[C@]54C)[C@]2(C)CO)[C@H](O)[C@@H](O[C@@H]2O[C@H](CO)[C@@H](O)[C@H](O)[C@H]2O)[C@H]1O		histology	AAV8 empty vector mice, liver	dose not given, high dose, with: chronic-plus-binge ethanol		Oil Red O area	0.064% and 0.08% and 0.062%
O=C(Cc1cccc(I)c1)N[C@H]1CCOC1=O	ExpR2 (Pectobacterium carotovorum)	cellulase activity, antagonist	Pectobacterium carotovorum, single-ExpR2 strain	5 µM, 4 h, with: OHHL 5 µM		inhibition	63%
CN1CCN(S(=O)(=O)c2cc([N+](=O)[O-])ccc2N(CCOS(C)(=O)=O)CCOS(C)(=O)=O)CC1			NSG mice, sample CD PDX	intraperitoneal, 25 mg/kg weekly x3		event-free survival	75 days
CC(C)NCCc1c[nH]c2cccc(O)c12.O=C(O)/C=C/C(=O)O			C57BL/6J mice	subcutaneous, 3 mg/kg, 30 min		distance travelled	2140 ± 234 cm
CCCCCCCCCCCC[N+](C)(C)CCOCC[N+](C)(C)CCCCCCCCCCCC.[Br-].[Br-]	influenza A virus A/PR/8/34 (H1N1)			concentration not given, co-treatment		protection	86.2 ± 6.8%
CC[C@H](C)[C@@H]1NC(=O)[C@@H]2CCCN2C(=O)[C@H](CC(C)C)NC(=O)[C@H](CC(C)C)NC(=O)CNC(=O)[C@@H](NC(=O)[C@@H](NC(=O)[C@H](CC(=O)O)NC(=O)CNC(=O)[C@@H](NC(=O)[C@H](C)NC(=O)CNC(=O)[C@H](CCCCN)NC(=O)[C@H](CC(C)C)NC(=O)[C@H](CC(C)C)NC(=O)[C@H](CCCCN)NC(=O)CNC(=O)[C@@H](NC(=O)[C@@H](N)CC(C)C)C(C)C)C(C)C)C(C)C)CSSC[C@@H](C(=O)O)NC1=O		RNA-seq, item: Ppp1r35	mouse, traumatic brain injury model, frontal cortex and hippocampus	dose not given	reference: TBI alone	log2 fold change	-0.925
CCNCCc1c[nH]c2cccc(O)c12.CCNCCc1c[nH]c2cccc(O)c12.O=C(O)CCC(=O)O			C57BL/6J mice	subcutaneous, 30 mg/kg, 30 min session		distance travelled	1040 ± 284 cm
CCCCCCCCCCCC[N+](C)(C)CCCCCCCCCC[N+](C)(C)CCCCCCCCCCCC.[Br-].[Br-]	influenza A virus A/PR/8/34 (H1N1)			concentration not given, post-treatment		HA titre reduction	2.5 ± 0.5 log units
COc1cc(CCC[P+](c2ccccc2)(c2ccccc2)c2ccccc2)c(OC)c2c1OCO2.[I-]	LOX IMVI	SRB				Log10TGI	-4.92 log M
CCCCNCCc1c[nH]c2cccc(O)c12.O=C(O)/C=C/C(=O)O			C57BL/6J mice	subcutaneous, 30 mg/kg, 30 min		distance travelled	1470 ± 318 cm
CS(=O)(=O)CCCn1c(Cn2c(=O)n(CC(F)(F)F)c3ccncc32)cc2cc(Cl)ccc21	respiratory syncytial virus	RT-qPCR	hospitalized infants 1-24 months, nasal swab	oral, 8 mg/kg daily, day 3, cohort 6-24 months	reference: baseline	LS mean viral load change	-1.56 log10 copies/mL
CCCNCCc1c[nH]c2cccc(O)c12.CCCNCCc1c[nH]c2cccc(O)c12.O=C(O)/C=C/C(=O)O			C57BL/6J mice	subcutaneous, 0.03 mg/kg, 30 min		distance travelled	2240 ± 207 cm
C=CCN1CC[C@]23c4c5ccc(O)c4O[C@H]2C(=O)CC[C@@]3(O)[C@H]1C5		tail-flick test	male ICR-CD1 mice	subcutaneous, 5 mg/kg, 45 min		% MPE	-32% and -3.13% and -37.4% and 8.63% and 3.85% and 2.33%
CCC(CC)O[C@@H]1C=C(C(=O)O)C[C@H](N)[C@H]1NC(C)=O	influenza A virus A/PR/8/34 (H1N1)			concentration not given, post-treatment		HA titre reduction	8 log units
CC(C)(C)NCCc1c[nH]c2cccc(O)c12.CC(C)(C)NCCc1c[nH]c2cccc(O)c12.O=C(O)/C=C/C(=O)O			C57BL/6J mice	subcutaneous, 0.1 mg/kg, 30 min		distance travelled	2530 ± 261 cm
CCCCCCCCCCCCCCCC[N+](C)(C)Cc1ccc(C[N+](C)(C)CCCCCCCCCCCCCCCC)cc1.[Br-].[Br-]	influenza A virus A/PR/8/34 (H1N1)			concentration not given, pre-treatment		protection	73.8 ± 1.4%
C=CCNCCc1c[nH]c2cccc(O)c12.C=CCNCCc1c[nH]c2cccc(O)c12.O=C(O)/C=C/C(=O)O			C57BL/6J mice	subcutaneous, 1 mg/kg		head twitch count	36 ± 2.3

For quick reference, copied from above:
SMILES	tested on	test	system	setting	scale	measurement	value
CS(=O)(=O)CCCn1c(Cn2c(=O)n(CC(F)(F)F)c3ccncc32)cc2cc(Cl)ccc21	respiratory syncytial virus	RT-qPCR	hospitalized infants 1-24 months, nasal swab	oral, 8 mg/kg daily, day 3, cohort 6-24 months	reference: baseline	LS mean viral load change	-1.56 log10 copies/mL
CCCNCCc1c[nH]c2cccc(O)c12.CCCNCCc1c[nH]c2cccc(O)c12.O=C(O)/C=C/C(=O)O			C57BL/6J mice	subcutaneous, 0.03 mg/kg, 30 min		distance travelled	2240 ± 207 cm
C=CCN1CC[C@]23c4c5ccc(O)c4O[C@H]2C(=O)CC[C@@]3(O)[C@H]1C5		tail-flick test	male ICR-CD1 mice	subcutaneous, 5 mg/kg, 45 min		% MPE	-32% and -3.13% and -37.4% and 8.63% and 3.85% and 2.33%
